{"data": "Measurements collected from several papers", "Ugcg": "Ceramide glucosyltransferase (Ugcg, Mus musculus, UniProt O88693)", "DRD3": "D(3) dopamine receptor (DRD3, Homo sapiens, UniProt P35462)", "note": "Protocols differ between the studies behind these lines. ± marks the error that the study gave.", "UniProt O88693, sequence (whole entry, looked up)": "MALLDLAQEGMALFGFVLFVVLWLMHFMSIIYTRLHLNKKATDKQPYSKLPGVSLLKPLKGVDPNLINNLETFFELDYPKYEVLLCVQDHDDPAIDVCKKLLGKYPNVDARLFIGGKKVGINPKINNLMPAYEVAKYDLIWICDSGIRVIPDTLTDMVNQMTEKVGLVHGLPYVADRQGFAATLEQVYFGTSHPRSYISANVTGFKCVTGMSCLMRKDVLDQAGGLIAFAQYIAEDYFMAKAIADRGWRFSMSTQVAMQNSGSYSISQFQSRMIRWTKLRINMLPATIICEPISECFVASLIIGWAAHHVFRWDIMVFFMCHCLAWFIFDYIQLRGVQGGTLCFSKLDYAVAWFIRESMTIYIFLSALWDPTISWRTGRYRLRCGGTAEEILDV", "UniProt P35462, sequence (whole entry, looked up)": "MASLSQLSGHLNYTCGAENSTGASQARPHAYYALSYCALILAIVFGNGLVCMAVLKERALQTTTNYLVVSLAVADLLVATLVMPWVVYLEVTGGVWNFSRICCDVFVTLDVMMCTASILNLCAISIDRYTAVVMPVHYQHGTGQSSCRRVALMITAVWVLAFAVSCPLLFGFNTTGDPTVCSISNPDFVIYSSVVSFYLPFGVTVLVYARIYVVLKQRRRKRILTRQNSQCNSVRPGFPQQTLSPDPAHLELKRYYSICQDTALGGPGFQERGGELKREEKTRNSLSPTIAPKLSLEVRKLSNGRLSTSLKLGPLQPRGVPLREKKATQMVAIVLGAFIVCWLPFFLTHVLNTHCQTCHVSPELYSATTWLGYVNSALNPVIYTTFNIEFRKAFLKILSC", "UniProt P25103, sequence (whole entry, unmodified, looked up)": "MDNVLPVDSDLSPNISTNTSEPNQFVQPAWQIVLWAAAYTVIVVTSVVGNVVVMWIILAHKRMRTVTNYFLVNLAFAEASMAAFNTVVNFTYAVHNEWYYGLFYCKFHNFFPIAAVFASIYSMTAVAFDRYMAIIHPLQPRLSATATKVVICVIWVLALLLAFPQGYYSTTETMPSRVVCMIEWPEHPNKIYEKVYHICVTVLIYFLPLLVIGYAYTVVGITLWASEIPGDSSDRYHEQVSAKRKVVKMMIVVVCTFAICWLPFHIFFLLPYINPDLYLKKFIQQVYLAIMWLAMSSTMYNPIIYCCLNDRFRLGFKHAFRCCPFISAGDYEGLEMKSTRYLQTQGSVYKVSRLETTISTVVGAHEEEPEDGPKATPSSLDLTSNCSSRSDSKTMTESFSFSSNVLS", "UniProt P00761, sequence (whole entry, looked up)": "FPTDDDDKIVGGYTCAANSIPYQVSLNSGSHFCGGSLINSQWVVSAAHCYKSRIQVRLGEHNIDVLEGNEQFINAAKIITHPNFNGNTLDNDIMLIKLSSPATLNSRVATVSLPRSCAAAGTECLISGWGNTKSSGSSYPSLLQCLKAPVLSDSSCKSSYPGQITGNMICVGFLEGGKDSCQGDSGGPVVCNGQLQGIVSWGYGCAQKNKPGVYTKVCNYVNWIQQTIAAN", "UniProt Q9UM73, sequence (whole entry, unmodified, looked up)": "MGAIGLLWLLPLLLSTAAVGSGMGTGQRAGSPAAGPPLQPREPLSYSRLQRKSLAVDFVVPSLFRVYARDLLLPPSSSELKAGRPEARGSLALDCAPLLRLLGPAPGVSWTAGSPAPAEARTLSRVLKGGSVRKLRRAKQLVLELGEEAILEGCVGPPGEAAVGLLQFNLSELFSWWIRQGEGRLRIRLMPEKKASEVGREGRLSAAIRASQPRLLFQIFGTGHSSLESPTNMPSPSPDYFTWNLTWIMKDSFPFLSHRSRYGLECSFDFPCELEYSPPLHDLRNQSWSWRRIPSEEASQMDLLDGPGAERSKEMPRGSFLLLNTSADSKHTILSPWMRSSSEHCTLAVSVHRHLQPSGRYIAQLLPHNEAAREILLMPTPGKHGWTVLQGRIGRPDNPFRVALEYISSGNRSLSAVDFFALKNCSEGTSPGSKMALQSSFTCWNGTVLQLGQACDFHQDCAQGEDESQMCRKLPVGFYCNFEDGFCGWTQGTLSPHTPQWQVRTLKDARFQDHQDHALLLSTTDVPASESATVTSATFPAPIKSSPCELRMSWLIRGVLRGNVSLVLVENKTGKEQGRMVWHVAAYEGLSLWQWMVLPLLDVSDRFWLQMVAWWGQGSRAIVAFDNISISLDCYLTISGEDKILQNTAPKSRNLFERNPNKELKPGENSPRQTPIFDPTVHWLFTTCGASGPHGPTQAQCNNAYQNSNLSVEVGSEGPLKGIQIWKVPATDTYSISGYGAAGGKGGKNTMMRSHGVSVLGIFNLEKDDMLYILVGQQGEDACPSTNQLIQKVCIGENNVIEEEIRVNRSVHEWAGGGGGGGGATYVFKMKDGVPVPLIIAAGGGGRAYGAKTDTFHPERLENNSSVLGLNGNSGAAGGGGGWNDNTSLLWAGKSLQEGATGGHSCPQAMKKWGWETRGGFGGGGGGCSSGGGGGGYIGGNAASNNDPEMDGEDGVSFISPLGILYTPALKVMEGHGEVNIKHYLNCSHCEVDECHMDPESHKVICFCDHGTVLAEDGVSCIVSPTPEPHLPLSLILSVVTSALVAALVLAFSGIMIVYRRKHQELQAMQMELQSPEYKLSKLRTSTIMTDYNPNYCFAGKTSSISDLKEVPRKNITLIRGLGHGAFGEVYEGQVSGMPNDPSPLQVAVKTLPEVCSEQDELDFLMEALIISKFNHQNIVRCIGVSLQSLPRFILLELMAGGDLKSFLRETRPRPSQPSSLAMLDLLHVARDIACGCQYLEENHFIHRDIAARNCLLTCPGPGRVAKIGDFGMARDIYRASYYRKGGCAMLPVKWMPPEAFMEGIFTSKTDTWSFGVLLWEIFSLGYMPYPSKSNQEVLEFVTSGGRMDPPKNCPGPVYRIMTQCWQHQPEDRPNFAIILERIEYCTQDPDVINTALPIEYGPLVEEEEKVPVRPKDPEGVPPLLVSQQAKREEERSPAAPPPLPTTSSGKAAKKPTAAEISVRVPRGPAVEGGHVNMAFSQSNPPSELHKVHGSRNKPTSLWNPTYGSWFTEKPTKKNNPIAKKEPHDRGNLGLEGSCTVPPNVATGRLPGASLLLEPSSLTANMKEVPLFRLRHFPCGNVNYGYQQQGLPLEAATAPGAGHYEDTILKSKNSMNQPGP", "UniProt P08581, sequence (whole entry, looked up)": "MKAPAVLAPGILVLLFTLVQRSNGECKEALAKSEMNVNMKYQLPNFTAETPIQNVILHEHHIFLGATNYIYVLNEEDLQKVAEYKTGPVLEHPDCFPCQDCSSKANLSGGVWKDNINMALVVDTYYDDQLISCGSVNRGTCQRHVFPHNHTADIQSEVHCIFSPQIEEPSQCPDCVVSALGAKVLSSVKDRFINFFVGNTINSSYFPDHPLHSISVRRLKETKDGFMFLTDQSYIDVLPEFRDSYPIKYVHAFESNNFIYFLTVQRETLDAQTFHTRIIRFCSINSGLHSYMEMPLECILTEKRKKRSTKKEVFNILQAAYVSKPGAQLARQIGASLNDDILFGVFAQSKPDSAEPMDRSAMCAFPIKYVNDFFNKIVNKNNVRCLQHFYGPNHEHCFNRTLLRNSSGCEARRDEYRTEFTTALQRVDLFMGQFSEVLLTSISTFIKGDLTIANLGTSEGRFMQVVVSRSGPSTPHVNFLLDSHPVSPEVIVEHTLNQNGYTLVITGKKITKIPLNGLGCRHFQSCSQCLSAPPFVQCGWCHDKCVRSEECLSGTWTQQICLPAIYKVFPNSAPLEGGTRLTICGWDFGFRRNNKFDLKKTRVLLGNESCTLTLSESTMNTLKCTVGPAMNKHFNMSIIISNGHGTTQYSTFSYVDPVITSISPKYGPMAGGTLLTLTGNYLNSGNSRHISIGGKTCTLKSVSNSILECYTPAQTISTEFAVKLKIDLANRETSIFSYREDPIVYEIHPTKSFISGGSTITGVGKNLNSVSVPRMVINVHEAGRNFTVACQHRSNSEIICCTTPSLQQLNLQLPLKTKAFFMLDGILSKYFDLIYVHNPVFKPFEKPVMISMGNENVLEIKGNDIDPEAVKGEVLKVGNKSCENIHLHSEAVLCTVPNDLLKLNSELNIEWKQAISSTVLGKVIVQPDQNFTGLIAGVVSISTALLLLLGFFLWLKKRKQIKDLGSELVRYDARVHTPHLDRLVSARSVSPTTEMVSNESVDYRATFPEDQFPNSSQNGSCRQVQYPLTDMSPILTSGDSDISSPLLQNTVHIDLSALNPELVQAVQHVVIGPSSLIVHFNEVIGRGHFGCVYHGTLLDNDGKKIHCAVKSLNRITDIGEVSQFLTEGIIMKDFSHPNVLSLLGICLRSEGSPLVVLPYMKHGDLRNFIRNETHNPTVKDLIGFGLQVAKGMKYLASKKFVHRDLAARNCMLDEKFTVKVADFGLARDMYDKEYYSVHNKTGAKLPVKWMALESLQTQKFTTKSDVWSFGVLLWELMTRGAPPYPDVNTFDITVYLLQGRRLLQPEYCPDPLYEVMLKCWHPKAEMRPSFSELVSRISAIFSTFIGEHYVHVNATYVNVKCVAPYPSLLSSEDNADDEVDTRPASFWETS", "UniProt P62258, sequence (whole entry, looked up)": "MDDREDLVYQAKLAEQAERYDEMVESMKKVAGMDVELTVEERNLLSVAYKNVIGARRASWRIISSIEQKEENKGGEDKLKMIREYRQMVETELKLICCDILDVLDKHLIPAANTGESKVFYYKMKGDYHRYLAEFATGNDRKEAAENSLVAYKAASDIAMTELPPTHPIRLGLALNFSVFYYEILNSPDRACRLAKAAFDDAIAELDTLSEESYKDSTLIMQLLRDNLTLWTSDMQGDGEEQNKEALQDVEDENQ"}
{"SMILES": "CSCC[C@H](NC(=O)[C@H](CC(C)C)NC(=O)CNC(=O)[C@H](Cc1ccccc1)NC(=O)[C@H](Cc1ccccc1)NC(=O)[C@@H](N)CCC(N)=O)C(N)=O", "tested on": "TACR1 (Homo sapiens, UniProt P25103, N89D)", "assay": "agonist", "conditions": "concentration not given", "measurement": "EC50", "value": "631 nM"}
{"SMILES": "CCn1nc(Cl)c2c1-c1cnc(N)c(c1)O[C@H](C)c1cc(F)ccc1-c1nn(C)cc1C2", "tested on": "ALK (Homo sapiens, UniProt Q9UM73, I1171N)", "assay": "enzyme activity, inhibitor", "conditions": "together with: 1 mM ATP", "measurement": "IC50", "value": "3.4 nM"}
{"SMILES": "CC(=O)Nc1ccc([C@H]2[C@@H](F)[C@@H](F)C[C@@H](F)[C@H]2F)cc1", "assay": "liver microsome stability", "system": "cynomolgus liver microsomes", "conditions": "1 µM", "measurement": "hepatic clearance", "value": "29 mL/min/kg"}
{"SMILES": "CC(C)=CCC/C(C)=C/CC/C(C)=C/COCCCCCN1C[C@H](O)[C@@H](O)[C@H](O)[C@@H]1CO", "tested on": "Ugcg", "assay": "enzyme activity, inhibitor, fluorescence", "measurement": "IC50", "value": "2500 nM"}
{"SMILES": "CN(C)c1ccc(/C=C/c2cc(/C=C3\\Sc4ccccc4N3CCCN3CCCC3)c3ccccc3[n+]2C)cc1", "tested on": "Telo21 DNA", "assay": "isothermal titration calorimetry", "conditions": "pH 7.4, 25 °C, 2% DMSO", "measurement": "Kd", "value": "2930 nM"}
{"SMILES": "OC[C@@H]1[C@@H](O)[C@H](O)[C@@H](O)CN1CCCCCCOCC12CC3CC(CC(C3)C1)C2", "tested on": "Ugcg", "assay": "enzyme activity, inhibitor, fluorescence", "measurement": "IC50", "value": "300 nM"}
{"SMILES": "OB(O)c1cnn(-c2cccc(Cl)c2)c1", "tested on": "Trypsin (Sus scrofa, UniProt P00761)", "assay": "enzyme activity, inhibitor, absorbance", "measurement": "Ki", "value": "138000 nM"}
{"SMILES": "CCCCCNC(=O)C1C(O)C(O)C(O)C(CO)N1CCCC (centres unmarked)", "tested on": "Ugcg", "assay": "enzyme activity, inhibitor, fluorescence", "measurement": "IC50", "value": "4000 nM"}
{"SMILES": "OCCNCc1ccc(-c2cc(Cl)cc(Cl)c2)o1", "tested on": "DRD3", "assay": "ligand displacement, radioligand", "measurement": "Ki", "value": "236 nM"}
{"SMILES": "Cc1ccccc1-c1ccc(COCCCCCN2C[C@H](O)[C@@H](O)[C@H](O)[C@H]2CO)cc1", "tested on": "Ugcg", "assay": "enzyme activity, inhibitor, fluorescence", "measurement": "IC50", "value": "25 nM"}
{"SMILES": "CC[C@@H](CO)NCc1ccc(-c2cc(Cl)ccc2Cl)o1", "tested on": "DRD3", "assay": "ligand displacement, radioligand", "measurement": "Ki", "value": "254 nM"}
{"SMILES": "COC1(C2=NCCN2)COc2ccccc2O1 (centres unmarked)", "tested on": "α2-adrenergic receptor chimera", "assay": "[3H]compound saturation binding", "system": "HEK293 membranes", "conditions": "α2a(NT-TM7)/α2c(CT)-AR chimera", "measurement": "Kd", "value": "2.5 ± 0.11 nM"}
{"SMILES": "Cc1nn(-c2cccc(N)c2)c(=O)c2cnc(Nc3ccc(N4CCNCC4)cc3)nc12", "tested on": "MET (Homo sapiens, UniProt P08581)", "assay": "kinase activity, inhibitor, SelectScreen kinase profiling", "measurement": "IC50", "value": "3230 nM"}
{"SMILES": "O=C(NCc1cccc(Cl)c1)c1ccc(C2CCCCC2)cc1", "assay": "liver microsome stability", "system": "mouse liver microsomes", "conditions": "1 µM", "measurement": "hepatic clearance", "value": "82 mL/min/kg"}
{"SMILES": "OC[C@@H]1[C@@H](O)[C@H](O)[C@@H](O)CN1CCCCCOCc1ccc(-c2ccc3c(c2)OCCCO3)cc1", "tested on": "Ugcg", "assay": "enzyme activity, inhibitor, fluorescence", "measurement": "IC50", "value": "25 nM"}
{"SMILES": "CC(=O)N[C@@H](CCCNC(=N)N)C(=O)N[C@H](C(=O)N[C@@H](CCCCN)C(=O)N[C@@H](CO)C(=O)N[C@@H](CCCNC(=N)N)C(=O)N[C@H](C(=O)N[C@@H](Cc1c[nH]c2ccccc12)C(=O)N[C@@H](C)C(=O)NCC(N)=O)[C@@H](C)OP(=O)(O)O)[C@@H](C)O", "tested on": "14-3-3 protein epsilon (Homo sapiens, UniProt P62258)", "assay": "surface plasmon resonance", "conditions": "298 K", "measurement": "binding free energy", "value": "-10.1 ± 0.29 kcal/mol"}
{"SMILES": "c1ccc(OC[C@H]2CN(CCN3CCc4ccccc43)CCO2)nc1", "tested on": "DRD3", "assay": "ligand displacement, radioligand", "measurement": "Ki", "value": "> 10000 nM"}
{"SMILES": "CCCCCCCN1C[C@H](O)[C@@H](O)[C@H](O)[C@@H]1CO", "tested on": "Ugcg", "assay": "enzyme activity, inhibitor, fluorescence", "measurement": "IC50", "value": "4000 nM"}
{"SMILES": "CCc1nc2cc3ccccc3cc2cc1C(=O)N1CCC[C@H]1C(=O)N[C@@H](C/C=C\\C[C@H](NC(=O)[C@@H]1CCCN1C(=O)c1cc2cc3ccccc3cc2nc1CC)C(=O)N[C@@H](CCCCN)C(=O)NCCCN)C(=O)N[C@@H](CCCCN)C(=O)NCCCN", "tested on": "(CUG)2 RNA", "assay": "SPR", "measurement": "Kd", "value": "21 nM"}
{"SMILES": "O[C@H]1[C@H](O)[C@@H](Cl)C=C[C@@H]1O", "tested on": "yeast alpha-glucosidase", "assay": "covalent inhibitor", "conditions": "pH 7, 37 °C", "measurement": "kinact/Ki", "value": "7.7 ± 0.07 M^–1 s^–1"}
{"note": "A few entries again:"}
{"SMILES": "CC(=O)Nc1ccc([C@H]2[C@@H](F)[C@@H](F)C[C@@H](F)[C@H]2F)cc1", "assay": "liver microsome stability", "system": "cynomolgus liver microsomes", "conditions": "1 µM", "measurement": "hepatic clearance", "value": "29 mL/min/kg"}
